Results gathered from unrelated publications.
Compare with care: the assays were run in different laboratories. Values joined by “and” are separate records of one study, mostly repeats; a detail may differ.
MAPK14: Mitogen-activated protein kinase 14 (MAPK14, Homo sapiens, UniProt Q16539)
Sequence of UniProt Q16539 (whole entry, unmodified, looked up): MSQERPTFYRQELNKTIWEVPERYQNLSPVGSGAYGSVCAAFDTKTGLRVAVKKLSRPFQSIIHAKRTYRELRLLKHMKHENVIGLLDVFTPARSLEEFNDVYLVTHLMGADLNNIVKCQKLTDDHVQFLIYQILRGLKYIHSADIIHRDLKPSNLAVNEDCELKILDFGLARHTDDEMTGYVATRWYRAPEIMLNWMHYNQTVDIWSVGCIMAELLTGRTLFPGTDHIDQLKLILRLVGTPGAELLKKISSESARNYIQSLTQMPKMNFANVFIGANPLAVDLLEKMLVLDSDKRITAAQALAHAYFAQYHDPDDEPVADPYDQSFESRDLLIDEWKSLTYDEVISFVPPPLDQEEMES

`C[C@@H](c1ccc(-n2cnc3c(N)ncnc32)cc1)N1CCc2nn(C)c(Cc3ccccc3)c2C1=O` has a remaining binding of 98% (MAPK14; KINOMEscan; 0.1 µM; relative to: DMSO control).
For `Cc1ccc(Nc2nc3nonc3nc2Nc2cccc(C(F)(F)F)c2)cc1Cl`, inhibition read “no inhibition” (MAPK14; enzyme activity, inhibitor, TR-FRET; up to 30 µM).
The selectivity improvement of `Cn1cc(-c2ccnc3ccccc23)c(-c2ccccn2)n1` is reported as 2 fold (MAPK14; enzyme activity; relative to: LY selectivity Yck2 over MAPK14).
`[2H]c1cc(C)c(NC(=O)c2cnc(Nc3cc(N4CCCCC4)nc(C)n3)s2)c(Cl)c1` has an inhibition of < 30% (MAPK14; 0.01 µM).
`CCN(CC)c1ccc(C2=NNC(=O)CC2C)cc1[N+](=O)[O-]` (stereo not shown) gave a remaining activity of 97% (MAPK14; enzyme activity, inhibitor; 10 µM; relative to: vehicle).
`CCCOc1ccc(OC)c(F)c1C(=O)c1ccc(C(=O)N[C@@H]2CNC[C@H]2NC(=O)c2ccc3[nH]ncc3c2)cc1` has a remaining activity of 91% (Mitogen-activated protein kinase 14 (MAPK14, Homo sapiens, UniProt Q16539, T106M); enzyme activity; 10 µM).
`CSc1nc(C)c(-c2ccnc(Nc3ccc(N4CCOCC4)cc3)c2)[nH]1` gave an inhibition of 11.4% (MAPK14; kinase activity; 10 µM).
`Cc1ccc2c(=O)cc(C(=O)Nc3c(C(=O)c4ccc(F)cc4)oc4ccccc34)oc2c1C` — result for inhibition: “no inhibition” (MAPK14; enzyme activity, inhibitor, TR-FRET; up to 30 µM).
For `CCN1CCN(Cc2ccc(NC(=O)c3ccc(C)c(Oc4ncnc5[nH]ncc45)c3)cc2C(F)(F)F)CC1`, the inhibition was 98.6% (MAPK14; kinase probe binding, inhibitor, KiNativ; Huh-7 cell lysate; 1.0 µM).
`N#Cc1ccc2c(-c3ccncc3)c(-c3ccc(F)cc3)nn2c1` has a target occupancy of > 70% (MAPK14; inhibitor, NanoBRET; HEK293; 1.0 µM).
For `Oc1ccc(-c2nc(-c3ccncc3)c(-c3ccc(F)cc3)[nH]2)cc1`, the normalized luminescence was 1.03 and 0.977 and 1.16 (MAPK14; kinase activity, Kinase-Glo luminescence; concentration not given).
`C=CC(=O)N1CCC(COCC(=O)N2CCN(c3nc(-c4cnc(N)nc4C(F)F)nc(N4CCOC[C@@H]4C)n3)CC2)CC1` has a remaining binding of 100% (MAPK14; KINOMEscan; 1 µM; relative to: DMSO control).
The efficacy of `COc1ccc2c(c1)CCc1c-2n[nH]c1C(=O)N1CCc2nc3cc(-c4ccccc4)[nH]n3c(=O)c2C1` is reported as -24.8% (MAPK14; kinase activity, LanthaScreen TR-FRET; SB202190 287.5 µM as -100%; relative to: DMSO control).
For `CNc1ncc2c(/C=C/C(=O)N3CCC(OC)CC3)nn(Cc3cccc(C(F)(F)F)c3)c2n1`, the remaining activity was 89% (MAPK14; kinase activity, inhibitor; 1 µM; relative to: untreated control).
`CCc1ccc(NC(=O)CSc2nc(-c3cccc(OC)c3)nc3c2Cc2c(CO)cnc(C)c2O3)cc1` has an efficacy of -16.9% (MAPK14; kinase activity, LanthaScreen TR-FRET; SB202190 287.5 µM as -100%; relative to: DMSO control).
With `c1cnc2ccc(Nc3nc(NC4CC4)c4nc[nH]c4n3)cc2c1` the remaining activity was 115% (MAPK14; kinase activity, inhibitor, SelectScreen kinase profiling; 1 µM; relative to: control).

Repeated from above:
For `CCN1CCN(Cc2ccc(NC(=O)c3ccc(C)c(Oc4ncnc5[nH]ncc45)c3)cc2C(F)(F)F)CC1`, the inhibition was 98.6% (MAPK14; kinase probe binding, inhibitor, KiNativ; Huh-7 cell lysate; 1.0 µM).
